Assay results collected from several papers.
Compare with care: the assays were run in different laboratories. ± gives the spread as reported. Values after ≈ are worked out from the molar mass of the structure shown.

| Substance | test | system | setting | scale | quantity | value |
| --- | --- | --- | --- | --- | --- | --- |
| CCCCCn1cc(-c2cn(C34CC5CC(CC(C5)C3)C4)nn2)c(=O)c2cc(-c3ccco3)ccc21 | HPLC | water with 5% DMSO | 18 h |  | kinetic solubility | 132 µg/mL (≈ 274 µM) |
| CC(=O)N[C@H](CCCCNC(=O)C(C)F)C(=O)N[C@@H](CS)C(=O)N[C@@H](CS)C(=O)N[C@@H](CCC(=O)O)C(=O)N[C@@H](Cc1c[nH]cn1)C(=O)N[C@H](Cc1ccccc1)C(=O)N[C@@H](CCCNC(=N)N)C(=O)N[C@@H](Cc1c[nH]c2ccccc12)C(=O)N[C@@H](CS)C(=O)N[C@@H](CCCNC(=N)N)C(=O)N1CCC[C@H]1C(=O)N[C@H](C(N)=O)C(C)C (some centres unmarked) [fluorine-18 labelled] |  | C57BL/6 mice, male, B16-F10 tumour, brain | intravenous, 1 h |  | tissue uptake | 0.11 ± 0.04 %ID/g |
| CC1=C2C[C@H]3[C@@H](CC[C@@H]4C[C@H](NS(C)(=O)=O)CC[C@@]43C)[C@@H]2CC[C@@]2(C1)O[C@@H]1C[C@H](C)CN[C@H]1[C@H]2C | safety | human patients | dose not given, within 30 days of discontinuation, phase I dose escalation | reference: patients | deaths from disease progression | 11% |
| CSCC[C@@H]1NC(=O)[C@H](CC(=O)O)NC(=O)CNC(=O)[C@H](CCCNC(=N)N)NC(=O)[C@H](C)NC(=O)[C@H](CCC(=O)O)NC(=O)[C@H](CCCNC(=N)N)NC(=O)[C@@H]2CSSC[C@@H]3NC(=O)[C@H](CO)NC(=O)[C@H]([C@@H](C)O)NC(=O)[C@@H]4CCCN4C(=O)[C@H](C)NC(=O)[C@H](Cc4c[nH]c5ccccc45)NC(=O)[C@H](CC(=O)O)NC(=O)CNC(=O)[C@H](CCCNC(=N)N)NC(=O)CNC(=O)[C@H](CCC(N)=O)NC(=O)[C@@H]4CCCN4C(=O)[C@@H](NC(=O)CNC(=O)C(C)F)CSSC[C@H](NC(=O)CNC(=O)[C@H](C)NC(=O)[C@H](CC(C)C)NC(=O)[C@H](CSSC[C@@H](C(=O)NCC(N)=O)NC(=O)[C@H]([C@@H](C)O)NC(=O)[C@H](CCCNC(=N)N)NC(=O)[C@@H]4CCCN4C1=O)NC(=O)[C@H](CC(=O)O)NC(=O)[C@H](CO)NC(=O)[C@H](CC(=O)O)NC(=O)[C@H](CCC(N)=O)NC(=O)[C@H](CO)NC3=O)C(=O)N[C@@H](C(C)C)C(=O)N2 (some centres unmarked) [fluorine-18 labelled] |  | nude mice U-87 MG xenograft, skin | intravenous, 1 h |  | tissue uptake | 0.68 ± 0.05 %ID/g |
| CC(C)c1nc(N(C)S(C)(=O)=O)nc(-c2ccc(F)cc2)c1/C=C/[C@@H](O)C[C@@H](O)CC(=O)O |  | healthy volunteers, plasma | oral, dose not given, given alone |  | AUC | 23 ng·h/mL |
| COc1ccc(-c2cc(=O)c3c(OC)c(OC)c(OC)c(OC)c3o2)cc1OC |  | C57BL/6 mouse, male, plasma | oral, 1% w/w in diet, 6 weeks, orange peel extract diet | reference: content in orange peel | tissue to peel content ratio | 0.086% |
| O=C(O)C(F)(OC(F)(F)C(F)(F)C(F)(F)F)C(F)(F)F (centres unmarked) | LC-MS | C57BL/6J mouse female, plasma | drinking water, 2 mg/L each PFAS, 12 weeks |  | plasma concentration | 190 ng/mL |
| CS(=O)(=O)CCCn1c(Cn2c(=O)n(CC(F)(F)F)c3ccncc32)cc2cc(Cl)ccc21 |  | RSV-infected infants | concentration not given, high dose cohorts |  | patients with low MCH | 0% |
| [Met(O)35]Aβ40 | electron microscopy | sodium phosphate buffer | 10 µM, pH 7.4, 25 °C, agitation 200 rpm | reference: wild-type peptide | delay of fibril formation | ~24 h |
| [123I]c1cncc(OC[C@@H]2CCN2)c1 | SPECT | human, hippocampus | intravenous bolus plus infusion, 7.6 mCi | reference: tissue over plasma | tissue/plasma ratio | 35 |
| CCCCCCCC[N+](C)(C)Cc1ccccc1 | substrate depletion | human liver microsomes | 0.5 µM, 0 to 3 h, 37 °C, together with: NADPH |  | intrinsic clearance | 1.54 mL/h/mg protein |
| CNC(=O)c1ccc(-c2cnn3ccc(C(=O)N(C)c4ccc(Cl)c(C(=O)OC)c4)cc23)cc1 |  | beagle dogs, both sexes, plasma | oral, 15 mg/kg/day, day 1 |  | Tmax | 1.25 h |
| O=C(OC(C(F)(F)F)C(F)(F)F)N1CCC(Cn2ccc3cccnc32)CC1 |  | PBS | 20 h, pH 7.4, 20 °C |  | solubility | < 1 µg/mL |
| CC[C@H](C)[C@H](NC(=O)[C@H](CC(C)C)NC(=O)[C@H](Cc1c[nH]c2ccccc12)NC(=O)[C@H](CCC(N)=O)NC(=O)[C@@H](NC(=O)[C@H](Cc1ccccc1)NC(=O)[C@H](C)NC(=O)[C@H](CCCCNC(=O)COCCOCCNC(=O)COCCOCCNC(=O)CC[C@H](NC(=O)CCCCCCCCCCCCCCCCCCC(=O)O)C(=O)O)NC(=O)[C@H](CCC(N)=O)NC(=O)[C@H](C)NC(=O)[C@@H](NC(=O)[C@H](CCCCN)NC(=O)[C@H](CC(=O)O)NC(=O)[C@H](CC(C)C)NC(=O)C(C)(C)NC(=O)[C@@H](NC(=O)[C@H](CO)NC(=O)[C@H](Cc1ccc(O)cc1)NC(=O)[C@H](CC(=O)O)NC(=O)[C@H](CO)NC(=O)[C@@H](NC(=O)[C@H](Cc1ccccc1)NC(=O)[C@@H](NC(=O)CNC(=O)[C@H](CCC(=O)O)NC(=O)C(C)(C)NC(=O)[C@@H](N)Cc1ccc(O)cc1)[C@@H](C)O)[C@@H](C)O)[C@@H](C)CC)[C@@H](C)CC)C(C)C)C(=O)N[C@@H](C)C(=O)NCC(=O)NCC(=O)N1CCC[C@H]1C(=O)N[C@@H](CO)C(=O)N[C@@H](CO)C(=O)NCC(=O)N[C@@H](C)C(=O)N1CCC[C@H]1C(=O)N1CCC[C@H]1C(=O)N1CCC[C@H]1C(=O)N[C@@H](CO)C(N)=O |  | human, normal hepatic function, plasma | subcutaneous, 5 mg single dose, geometric mean |  | AUC(0-tlast) | 82200 ng·h/mL |
| Cc1cnc(C(=O)N[C@H]2CCCCC/C=C\[C@@H]3C[C@@]3(C(=O)NS(=O)(=O)C3CC3)NC(=O)[C@@H]3C[C@@H](Oc4nc5ccccc5c5ccccc45)CN3C2=O)cn1 |  | healthy human volunteers, plasma | oral, dose not given, alone, pravastatin interaction study |  | AUC(0-24) | 1.61 µg·h/mL |
| CC[C@H](C)[C@H](NC(=O)[C@@H](N)CCCNC(=N)N)C(=O)N[C@H](C(=O)N1CCC[C@H]1C(=O)N[C@@H](C)C(N)=O)C(C)C |  | human, plasma | intravenous, 2 mg/kg, single dose, healthy volunteers |  | MRT | 4.8 min |

| Substance | test | system | setting | scale | quantity | value |
| --- | --- | --- | --- | --- | --- | --- |
| CCCCCOc1ccc(-c2cc(-c3ccc(C(=O)N[C@H]4C[C@@H](O)[C@@H](O)NC(=O)[C@@H]5[C@@H](O)[C@@H](C)CN5C(=O)[C@H]([C@H](O)CC(N)=O)NC(=O)[C@H]([C@H](O)[C@@H](O)c5ccc(O)c(OS(=O)(=O)O)c5)NC(=O)[C@@H]5C[C@@H](O)CN5C(=O)[C@H]([C@@H](C)O)NC4=O)cc3)no2)cc1 |  | human severe hepatic dysfunction | intravenous, 100 mg single dose |  | tolerability | not toxic |
| O=C(O)CC[C@H](NC(=O)CNC(=O)[C@@H]1C[C@@H](O)CN1)C(=O)N[C@@H](Cc1ccccc1)C(=O)NCC(=O)O |  | ICR mouse, tail bleeding | oral, 450 µmol/kg | reference: vehicle | spleen index | no effect |
| CN[C@@](C)(C[18F])C(=O)O |  | SCID mouse SK-OV-3 xenograft, spleen | 15 min, post injection |  | tissue uptake | 14 ± 0.7 %ID/g |
| CCCCCOc1ccc(-c2cc(-c3ccc(C(=O)N[C@H]4C[C@@H](O)[C@@H](O)NC(=O)[C@@H]5[C@@H](O)[C@@H](C)CN5C(=O)[C@H]([C@H](O)CC(N)=O)NC(=O)[C@H]([C@H](O)[C@@H](O)c5ccc(O)c(OS(=O)(=O)O)c5)NC(=O)[C@@H]5C[C@@H](O)CN5C(=O)[C@H]([C@@H](C)O)NC4=O)cc3)no2)cc1 |  | preterm neonates below 1000 g, plasma | intravenous, 15 mg/kg/day, repeated dosing, mean |  | AUC(0-24) | 413 µg·h/mL |
| CN1CCC(Nc2ncc3ncnc(Nc4ccc(F)c(Cl)c4)c3n2)CC1 |  | Gottingen minipig, male, liver S9 without NADPH | 1 µM, pH 7.4 |  | intrinsic clearance | 127 ± 7.08 mL/min/kg |
| Cc1c(P(=S)(c2ccccc2)c2ccccc2)n2ccccc2[n+]1C/C=C/c1ccccc1 |  | mouse, plasma | intraperitoneal, 10 mg/kg, 24 h |  | plasma concentration | 25 ng/mL |
| C[N+](C)(C)[C@@H](Cc1c[nH]c(=S)[nH]1)C(=O)[O-] |  | rat treated with 1,25-dihydroxyvitamin D3, muscle | intravenous | reference: untreated control rats | decrease in tissue partition coefficient | 47.3% |
| O[C@H]1CCCN[C@@H]1CCCn1cnc2c(Cl)c(Cl)ccc21 |  | healthy human volunteers, plasma | oral, 200 mg, day 1, multiple ascending dose |  | AUC(0-tau) | 741 ng·h/mL |
| Oc1cccc2ccccc12 | fish short-term reproduction | Oryzias latipes, male, water, flow-through | 258 µg/L, end of exposure |  | body length | 38.2 ± 1.4 mm |
| COc1cccc2c1cc1c3c(cc4c(c32)OCO4)C(=O)N1 | HPLC | rat (Wistar, male), urine | subcutaneous, 2 mg of aristolochic acid I, 24 h collection |  | urine concentration | 0.018 µM |
| CCCCCOc1ccc(-c2ccc(-c3ccc(C(=O)N[C@H]4C[C@@H](O)[C@@H](O)NC(=O)[C@@H]5[C@@H](O)[C@@H](C)CN5C(=O)[C@H]([C@@H](C)O)NC(=O)[C@H]([C@H](O)[C@@H](O)c5ccc(O)cc5)NC(=O)[C@@H]5C[C@@H](O)CN5C(=O)[C@H]([C@@H](C)O)NC4=O)cc3)cc2)cc1 |  | adult patients | iv, dose not given, 2, during treatment |  | patients with hepatic adverse events | 9.1% |
| NC(=O)c1nc(F)c[nH]c1=O | UV-Vis spectrophotometry | supercritical CO2 | 120 min, 318 K, 21 MPa, 823.70 kg/m^3 |  | solubility | 801 µg/mL |
| CC(=O)CO |  | human skin ex vivo | 500 µL infinite dose, 5% m/V, propylene glycol/water vehicle |  | steady-state flux | 84.6 ± 79 µg/cm²/h |
| CC(C)[C@@H]1NC(=O)CNC(=O)[C@H](CC(N)=O)NC(=O)[C@H](CCCNC(=N)N)NC(=O)[C@H](Cc2ccc(O)cc2)NC(=O)[C@H](C(C)C)NC(=O)[C@@H](NC(=O)[C@@H](NC(=O)[C@H](CC(N)=O)NC(=O)[C@H](Cc2c[nH]c3ccccc23)NC(=O)[C@H](C)NC(=O)[C@H](Cc2ccccc2)NC(=O)CN)C(C)C)CSSC[C@@H](C(=O)N[C@@H](Cc2cnc[nH]2)C(=O)N[C@@H](CCCNC(=N)N)C(=O)N[C@@H](CCCNC(=N)N)C(=O)N[C@@H](C)C(=O)N[C@@H](CC(N)=O)C(N)=O)NC(=O)[C@H](C(C)C)NC(=O)[C@H](CCCNC(=N)N)NC1=O |  | mouse mammary gland homogenate | 2560 µM, 24 h |  | remaining peptide | < 14.5% |
| CCCCCOc1ccc(-c2cc(-c3ccc(C(=O)N[C@H]4C[C@@H](O)[C@@H](O)NC(=O)[C@@H]5[C@@H](O)[C@@H](C)CN5C(=O)[C@H]([C@H](O)CC(N)=O)NC(=O)[C@H]([C@H](O)[C@@H](O)c5ccc(O)c(OS(=O)(=O)O)c5)NC(=O)[C@@H]5C[C@@H](O)CN5C(=O)[C@H]([C@@H](C)O)NC4=O)cc3)no2)cc1 |  | human, plasma | intravenous, 7 mg/kg/day |  | AUC(0-24) | 163 µg·h/mL |
| CC1N=C(c2ccccc2F)c2cc(Nc3ccccc3C#N)ccc2NC1=O (centres unmarked) | shake flask | PBS | 24 h, pH 7.4 |  | solubility | 6.98 µM |

Some of these lines once more:
| Substance | test | system | setting | scale | quantity | value |
| --- | --- | --- | --- | --- | --- | --- |
| Oc1cccc2ccccc12 | fish short-term reproduction | Oryzias latipes, male, water, flow-through | 258 µg/L, end of exposure |  | body length | 38.2 ± 1.4 mm |
| COc1cccc2c1cc1c3c(cc4c(c32)OCO4)C(=O)N1 | HPLC | rat (Wistar, male), urine | subcutaneous, 2 mg of aristolochic acid I, 24 h collection |  | urine concentration | 0.018 µM |
| CCCCCOc1ccc(-c2ccc(-c3ccc(C(=O)N[C@H]4C[C@@H](O)[C@@H](O)NC(=O)[C@@H]5[C@@H](O)[C@@H](C)CN5C(=O)[C@H]([C@@H](C)O)NC(=O)[C@H]([C@H](O)[C@@H](O)c5ccc(O)cc5)NC(=O)[C@@H]5C[C@@H](O)CN5C(=O)[C@H]([C@@H](C)O)NC4=O)cc3)cc2)cc1 |  | adult patients | iv, dose not given, 2, during treatment |  | patients with hepatic adverse events | 9.1% |
| NC(=O)c1nc(F)c[nH]c1=O | UV-Vis spectrophotometry | supercritical CO2 | 120 min, 318 K, 21 MPa, 823.70 kg/m^3 |  | solubility | 801 µg/mL |
| CC(=O)CO |  | human skin ex vivo | 500 µL infinite dose, 5% m/V, propylene glycol/water vehicle |  | steady-state flux | 84.6 ± 79 µg/cm²/h |
